{"data": "Results collected from several papers", "note": "Lines come from different studies, so protocols differ."}
{"Compound": "Cc1c(CN(C)C(=O)/C=C/c2cnc3c(c2)CC(N)C(=O)N3)oc2ccccc12 (centres unmarked)", "organism": "Klebsiella pneumoniae", "test": "broth microdilution", "system": "AR-0141", "MIC": "8 µg/mL"}
{"Compound": "N=C(N)NCCC[C@@H]1NC(=O)[C@H](CCCNC(=N)N)NC(=O)[C@H](CCCNC(=N)N)NC(=O)[C@@H](CCCNC(=N)N)NC(=O)[C@H](Cc2ccc3ccccc3c2)NC(=O)[C@H](Cc2ccc3ccccc3c2)NC(=O)[C@H](Cc2ccc3ccccc3c2)NC1=O", "organism": "Candida parapsilosis", "system": "ATCC 22019", "MIC": "8 µg/mL"}
{"Compound": "C[C@@H]1C(=O)O[C@@H](C)/C=C/C=C\\[C@@H](C)[C@@H]2C=C[C@@H]3C[C@@]4(C)O[C@H]4[C@@H](C)[C@H]3[C@@H]2C(=O)C(Cl)(Cl)C1=O", "organism": "Staphylococcus aureus", "system": "MRSA clinical isolate", "setting": "resistant: OXA,CIP,MXF", "MIC": "0.1 µg/mL"}
{"Compound": "CC1(C)C(NC(=O)C(=NOC2(C(=O)O)CC2)c2csc(N)n2)C(=O)N1OS(=O)(=O)O (centres unmarked)", "organism": "Klebsiella pneumoniae", "system": "17-15, ESBL", "setting": "compound alone", "MIC": "2 µg/mL"}
{"Compound": "N=C(N)NCCC[C@@H]1NC(=O)[C@H](CCCNC(=N)N)NC(=O)[C@@H](CCCNC(=N)N)NC(=O)[C@H](C(c2ccccc2)c2ccccc2)NC(=O)[C@H](C(c2ccccc2)c2ccccc2)NC(=O)[C@H](C(c2ccccc2)c2ccccc2)NC(=O)[C@H](CCCNC(=N)N)NC1=O", "organism": "Candida parapsilosis", "system": "ATCC 22019", "MIC": "4 µg/mL"}
{"Compound": "C=C[C@]1(C)C[C@@H](OC(=O)CSc2ccc(NC(=O)c3ccco3)cc2)[C@]2(C)[C@H](C)CC[C@]3(CCC(=O)[C@H]32)[C@@H](C)[C@@H]1O", "organism": "Mycoplasma gallisepticum", "system": "chicken lung isolates", "setting": "30 mg/kg to chickens", "MIC": "0.00195 µg/mL"}
{"Compound": "N=C(N)NCCC[C@@H]1NC(=O)[C@H](CCCNC(=N)N)NC(=O)[C@@H](CCCNC(=N)N)NC(=O)[C@@H](CCCNC(=N)N)NC(=O)[C@@H](C(c2ccccc2)c2ccccc2)NC(=O)[C@H](Cc2c[nH]c3ccccc23)NC(=O)[C@@H](C(c2ccccc2)c2ccccc2)NC1=O", "organism": "Candida parapsilosis", "system": "ATCC 22019", "MIC": "16 µg/mL"}
{"Compound": "FC(F)(F)c1cccc(CNc2nc(NC3CCN(Cc4ccccc4)CC3)c3nc[nH]c3n2)c1", "organism": "Cryptococcus neoformans", "test": "microbial growth, broth dilution", "setting": "72 h", "MIC": "50 µg/mL"}
{"Compound": "C=C(NC(=O)c1csc(-c2nc3c(cc2O)-c2nc(cs2)C(=O)NC(C(C)O)C(=O)NC(=C(C)OC)c2nc(cs2)C(=O)NC2c4nc(cs4)C(=O)NC(COC(=O)c4c5c6c(cccc6n4O)COC(=O)C(OC4CC(C)(O)C(N(C)C)C(C)O4)C2OC5)c2nc-3cs2)n1)C(N)=O (centres unmarked)", "organism": "Staphylococcus aureus", "test": "microbial growth, agar dilution", "system": "ATCC25923", "MIC": "0.0078 µg/mL"}
{"Compound": "CC1C=CC=CC(C)C2C=CC3CC(C)(O)C(Cl)C(C)C3C2C(=O)C(Cl)(Cl)C(=O)C(C)C(=O)O1 (centres unmarked)", "organism": "Staphylococcus aureus", "system": "MSSA clinical isolate", "setting": "resistant: DAP", "MIC": "0.025 µg/mL"}
{"Compound": "CCCCCCCC(=O)N[C@@H](CCN)C(=O)N[C@H](C(=O)N[C@@H](CN)C(=O)N[C@H]1CCNC(=O)[C@H]([C@@H](C)O)NC(=O)[C@H](CCN)NC(=O)[C@H](CCN)NC(=O)[C@H]([C@@H](C)O)NC(=O)[C@@H](CC(C)C)NC(=O)[C@H](CCN)NC1=O)[C@@H](C)O", "organism": "Acinetobacter baumannii", "system": "ATCC 17978, CAMHB", "setting": "20 h, 37 °C", "MIC": "0.5 µg/mL"}
{"note": "Excerpt of the above:"}
{"Compound": "C=C[C@]1(C)C[C@@H](OC(=O)CSc2ccc(NC(=O)c3ccco3)cc2)[C@]2(C)[C@H](C)CC[C@]3(CCC(=O)[C@H]32)[C@@H](C)[C@@H]1O", "organism": "Mycoplasma gallisepticum", "system": "chicken lung isolates", "setting": "30 mg/kg to chickens", "MIC": "0.00195 µg/mL"}
